Experimental data of several laboratories.
Lines come from different studies, so protocols differ. ± gives the spread as reported.
Hypoxanthine-guanine phosphoribosyltransferase: Hypoxanthine-guanine phosphoribosyltransferase (Trypanosoma cruzi, UniProt Q4DGA3)
CHRM5: Muscarinic acetylcholine receptor M5 (CHRM5, Homo sapiens, UniProt P08912)
Chain of UniProt P08912 (whole entry, looked up): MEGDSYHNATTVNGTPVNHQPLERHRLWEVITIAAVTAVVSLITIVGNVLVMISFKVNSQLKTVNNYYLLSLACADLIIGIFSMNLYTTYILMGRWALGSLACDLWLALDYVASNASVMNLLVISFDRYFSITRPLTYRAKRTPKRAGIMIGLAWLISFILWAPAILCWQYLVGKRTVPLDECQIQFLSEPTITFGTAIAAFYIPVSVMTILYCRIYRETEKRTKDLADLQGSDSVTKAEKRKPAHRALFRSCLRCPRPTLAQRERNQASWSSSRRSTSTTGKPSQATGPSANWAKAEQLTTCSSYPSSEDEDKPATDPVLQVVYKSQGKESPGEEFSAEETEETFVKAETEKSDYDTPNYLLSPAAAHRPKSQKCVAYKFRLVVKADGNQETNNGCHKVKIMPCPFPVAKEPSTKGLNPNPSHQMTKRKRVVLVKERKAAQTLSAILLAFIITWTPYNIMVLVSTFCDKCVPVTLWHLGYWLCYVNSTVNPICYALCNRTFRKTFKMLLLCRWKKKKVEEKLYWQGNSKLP
Drd2: D(2) dopamine receptor (Drd2, Rattus norvegicus, UniProt P61169)
Chain of UniProt P61169 (whole entry, looked up): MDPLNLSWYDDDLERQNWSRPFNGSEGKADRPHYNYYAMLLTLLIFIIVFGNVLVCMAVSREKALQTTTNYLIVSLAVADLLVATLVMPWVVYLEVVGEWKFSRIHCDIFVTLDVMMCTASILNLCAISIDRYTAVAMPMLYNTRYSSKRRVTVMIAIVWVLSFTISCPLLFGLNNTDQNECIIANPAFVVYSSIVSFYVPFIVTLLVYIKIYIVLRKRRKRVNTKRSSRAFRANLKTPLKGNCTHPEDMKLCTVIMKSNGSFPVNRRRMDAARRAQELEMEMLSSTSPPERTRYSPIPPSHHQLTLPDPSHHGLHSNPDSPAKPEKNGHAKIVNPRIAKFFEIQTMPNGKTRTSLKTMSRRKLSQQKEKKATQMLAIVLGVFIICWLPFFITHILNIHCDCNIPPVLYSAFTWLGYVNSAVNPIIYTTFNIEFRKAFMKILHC
CHRM1: Muscarinic acetylcholine receptor M1 (CHRM1, Homo sapiens, UniProt P11229)
Chain of UniProt P11229 (whole entry, looked up): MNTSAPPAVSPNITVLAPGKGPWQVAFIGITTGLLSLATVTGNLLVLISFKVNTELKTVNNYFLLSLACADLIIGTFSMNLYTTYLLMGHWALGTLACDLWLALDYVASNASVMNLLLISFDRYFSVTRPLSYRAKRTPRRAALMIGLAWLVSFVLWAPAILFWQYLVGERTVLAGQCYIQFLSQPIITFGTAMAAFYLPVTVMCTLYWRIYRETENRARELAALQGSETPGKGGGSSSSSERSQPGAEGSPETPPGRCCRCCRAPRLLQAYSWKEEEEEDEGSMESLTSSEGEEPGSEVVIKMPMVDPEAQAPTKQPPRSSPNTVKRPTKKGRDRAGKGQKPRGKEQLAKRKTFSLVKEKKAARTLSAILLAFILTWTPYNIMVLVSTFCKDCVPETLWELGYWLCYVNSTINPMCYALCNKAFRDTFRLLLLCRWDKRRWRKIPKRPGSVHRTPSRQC
CASP3: Caspase-3 (CASP3, Homo sapiens, UniProt P42574)
Chain of UniProt P42574 (whole entry, looked up): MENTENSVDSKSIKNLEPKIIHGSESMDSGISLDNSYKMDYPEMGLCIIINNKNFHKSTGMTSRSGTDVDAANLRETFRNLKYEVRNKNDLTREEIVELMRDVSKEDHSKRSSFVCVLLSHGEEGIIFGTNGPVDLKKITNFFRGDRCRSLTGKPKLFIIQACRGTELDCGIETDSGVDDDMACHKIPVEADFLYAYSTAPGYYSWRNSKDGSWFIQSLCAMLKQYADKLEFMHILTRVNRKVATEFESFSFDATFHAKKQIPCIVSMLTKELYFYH
CHRM3: Muscarinic acetylcholine receptor M3 (CHRM3, Homo sapiens, UniProt P20309)
Chain of UniProt P20309 (whole entry, looked up): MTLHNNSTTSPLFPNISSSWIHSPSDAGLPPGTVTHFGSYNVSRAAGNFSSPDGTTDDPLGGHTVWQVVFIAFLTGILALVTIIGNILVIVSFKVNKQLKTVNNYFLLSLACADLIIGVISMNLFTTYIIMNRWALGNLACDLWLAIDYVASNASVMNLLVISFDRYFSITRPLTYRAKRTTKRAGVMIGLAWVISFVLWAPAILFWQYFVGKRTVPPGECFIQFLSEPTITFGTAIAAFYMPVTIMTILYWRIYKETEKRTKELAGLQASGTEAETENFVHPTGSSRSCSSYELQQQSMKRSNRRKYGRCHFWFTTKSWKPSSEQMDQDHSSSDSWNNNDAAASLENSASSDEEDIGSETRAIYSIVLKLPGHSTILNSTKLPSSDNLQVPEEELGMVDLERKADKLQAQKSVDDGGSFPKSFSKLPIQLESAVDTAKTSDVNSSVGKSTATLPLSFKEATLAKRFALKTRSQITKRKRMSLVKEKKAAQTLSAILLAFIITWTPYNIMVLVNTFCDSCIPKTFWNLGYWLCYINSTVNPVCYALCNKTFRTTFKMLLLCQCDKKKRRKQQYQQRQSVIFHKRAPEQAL
SLC10A2: Ileal sodium/bile acid cotransporter (SLC10A2, Homo sapiens, UniProt Q12908)
Chain of UniProt Q12908 (whole entry, looked up): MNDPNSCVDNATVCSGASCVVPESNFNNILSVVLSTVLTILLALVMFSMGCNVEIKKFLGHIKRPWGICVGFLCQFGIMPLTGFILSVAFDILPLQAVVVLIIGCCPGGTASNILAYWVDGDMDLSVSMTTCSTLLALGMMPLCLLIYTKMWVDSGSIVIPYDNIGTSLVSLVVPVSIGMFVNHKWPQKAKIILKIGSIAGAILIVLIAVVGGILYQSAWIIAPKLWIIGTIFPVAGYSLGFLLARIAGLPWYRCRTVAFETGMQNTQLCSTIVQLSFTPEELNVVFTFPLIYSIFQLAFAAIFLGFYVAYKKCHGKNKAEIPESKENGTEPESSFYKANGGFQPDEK
GBA3: Cytosolic beta-glucosidase (GBA3, Homo sapiens, UniProt Q9H227)
Chain of UniProt Q9H227 (whole entry, looked up): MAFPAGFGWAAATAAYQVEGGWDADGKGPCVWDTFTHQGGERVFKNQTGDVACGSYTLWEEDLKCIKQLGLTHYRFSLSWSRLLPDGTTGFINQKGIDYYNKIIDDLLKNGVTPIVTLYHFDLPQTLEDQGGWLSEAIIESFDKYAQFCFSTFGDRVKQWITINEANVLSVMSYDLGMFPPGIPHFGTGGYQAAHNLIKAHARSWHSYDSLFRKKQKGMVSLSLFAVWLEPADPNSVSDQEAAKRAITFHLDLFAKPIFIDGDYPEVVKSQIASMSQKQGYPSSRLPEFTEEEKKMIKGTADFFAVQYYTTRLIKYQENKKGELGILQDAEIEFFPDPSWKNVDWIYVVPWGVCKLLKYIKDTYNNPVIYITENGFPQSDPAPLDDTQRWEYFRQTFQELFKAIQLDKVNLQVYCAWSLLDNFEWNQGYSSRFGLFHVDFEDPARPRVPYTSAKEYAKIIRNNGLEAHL
Chain of UniProt Q9Y2K7 (whole entry, looked up): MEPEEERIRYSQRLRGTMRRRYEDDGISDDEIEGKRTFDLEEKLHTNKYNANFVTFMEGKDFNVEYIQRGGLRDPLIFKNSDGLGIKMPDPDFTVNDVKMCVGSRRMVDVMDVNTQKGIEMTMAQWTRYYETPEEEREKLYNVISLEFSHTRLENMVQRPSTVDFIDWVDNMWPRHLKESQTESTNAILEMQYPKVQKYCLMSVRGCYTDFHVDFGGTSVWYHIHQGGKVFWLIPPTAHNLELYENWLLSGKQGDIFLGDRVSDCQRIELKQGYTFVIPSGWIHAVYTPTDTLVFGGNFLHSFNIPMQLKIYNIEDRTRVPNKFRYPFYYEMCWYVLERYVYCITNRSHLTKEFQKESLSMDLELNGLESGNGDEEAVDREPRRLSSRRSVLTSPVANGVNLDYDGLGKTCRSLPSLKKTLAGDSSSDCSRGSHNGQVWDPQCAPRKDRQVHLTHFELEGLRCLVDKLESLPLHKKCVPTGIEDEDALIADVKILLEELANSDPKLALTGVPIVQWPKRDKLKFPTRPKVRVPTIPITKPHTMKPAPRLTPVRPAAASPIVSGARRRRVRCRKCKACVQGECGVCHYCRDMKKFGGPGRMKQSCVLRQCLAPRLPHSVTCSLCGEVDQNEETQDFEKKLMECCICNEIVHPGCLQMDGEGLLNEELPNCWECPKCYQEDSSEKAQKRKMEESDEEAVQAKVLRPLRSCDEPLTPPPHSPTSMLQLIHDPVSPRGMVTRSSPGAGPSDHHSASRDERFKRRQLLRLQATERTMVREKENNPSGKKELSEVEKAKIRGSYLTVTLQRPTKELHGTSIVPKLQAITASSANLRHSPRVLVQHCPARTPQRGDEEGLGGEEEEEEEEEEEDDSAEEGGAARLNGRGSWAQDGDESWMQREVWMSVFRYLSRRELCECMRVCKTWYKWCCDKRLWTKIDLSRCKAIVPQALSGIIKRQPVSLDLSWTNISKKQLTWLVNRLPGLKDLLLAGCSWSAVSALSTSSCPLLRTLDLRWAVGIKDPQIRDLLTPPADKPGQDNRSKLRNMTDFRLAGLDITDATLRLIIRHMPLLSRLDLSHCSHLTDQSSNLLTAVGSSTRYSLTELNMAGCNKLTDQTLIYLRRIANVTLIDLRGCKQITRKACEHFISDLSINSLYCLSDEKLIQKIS
Chain of UniProt P56817 (whole entry, looked up): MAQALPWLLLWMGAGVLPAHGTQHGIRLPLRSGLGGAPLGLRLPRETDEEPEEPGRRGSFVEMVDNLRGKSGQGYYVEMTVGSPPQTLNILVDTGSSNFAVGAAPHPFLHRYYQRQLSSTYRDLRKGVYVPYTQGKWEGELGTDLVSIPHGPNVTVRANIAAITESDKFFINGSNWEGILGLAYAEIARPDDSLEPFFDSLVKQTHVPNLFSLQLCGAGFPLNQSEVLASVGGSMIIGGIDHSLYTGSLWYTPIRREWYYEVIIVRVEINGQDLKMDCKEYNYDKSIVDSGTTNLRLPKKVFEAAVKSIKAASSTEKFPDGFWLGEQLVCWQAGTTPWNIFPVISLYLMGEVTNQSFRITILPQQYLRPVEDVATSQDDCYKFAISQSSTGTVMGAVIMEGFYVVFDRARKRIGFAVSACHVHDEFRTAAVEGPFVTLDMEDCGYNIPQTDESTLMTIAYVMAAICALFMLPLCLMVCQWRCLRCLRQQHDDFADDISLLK
Chain of UniProt P24666 (whole entry, looked up): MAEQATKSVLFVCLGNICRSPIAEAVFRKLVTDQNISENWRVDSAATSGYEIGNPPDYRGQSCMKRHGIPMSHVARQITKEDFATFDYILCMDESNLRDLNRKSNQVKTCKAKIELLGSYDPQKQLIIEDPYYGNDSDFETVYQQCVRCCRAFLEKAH

| SMILES | target | assay | system | conditions | Ki |
| --- | --- | --- | --- | --- | --- |
| O=c1[nH]cnc2c(CN[C@H](CO)CCP(=O)(O)O)c[nH]c12 | Hypoxanthine-guanine phosphoribosyltransferase |  |  |  | 13 ± 2 nM |
| COc1cccc(CNC[C@@H](O)[C@H](Cc2ccccc2)NC(=O)c2cc(C)cc(C(=O)N(C)[C@H](C)c3ccccc3)c2)c1 | Beta-secretase 1 (BACE1, Homo sapiens, UniProt P56817) |  |  |  | 837 ± 25.1 nM |
| O=C1Nc2ccccc2N(C(=O)CN2CCC(CCCCN3CCC(N4CCC(n5c(=O)[nH]c6ccccc65)CC4)CC3)CC2)c2ccccc21 | CHRM5 | ligand displacement, radioligand |  |  | 81.3 nM |
| O=c1[nH]cnc2c(CNC(CO)COP(=O)(O)O)c[nH]c12 (stereo not drawn) | Hypoxanthine-guanine phosphoribosyltransferase |  |  |  | 1090 ± 260 nM |
| NCC1Cc2cccc(-c3cncc(N)c3)c2O1 (stereo not drawn) | Beta-2 adrenergic receptor (ADRB2, Homo sapiens, UniProt P07550) | binding, radioligand displacement | SNAP-tagged receptor HEK membranes | added: 1 nM [3H]dihydroalprenolol | 3160 nM |
| Cc1cc(OCCCN2CCN(c3cccc4sccc34)CC2)ccc1CN1CCCC1 | Drd2 | cell-free assay, radioligand |  |  | 95.6 nM |
| NC1CN(CCCCC2CCN(CC(=O)N3c4ccccc4NC(=O)c4ccccc43)CC2)CCN(CC(=O)N2CCC(N3CCC(n4c(=O)[nH]c5ccccc54)CC3)CC2)C1 (stereo not drawn) | CHRM1 | ligand displacement, radioligand |  |  | 4.27 nM |
| N#Cc1c(N)nc(SCc2ncc[nH]2)c(C#N)c1-c1cccc(O)c1 | Adenosine receptor A1 (ADORA1, Homo sapiens, UniProt P30542) | ligand displacement, radioligand |  | cell membranes | 9.6 nM |
| Clc1cc(CN2CCCC2)ccc1OCCCN1CCN(c2cccc3sccc23)CC1 | Drd2 | cell-free assay, radioligand |  |  | 101 nM |
| CC(=O)N[C@@H](C)C(=O)N[C@@H](CC(=O)O)C(=O)N[C@@H](CCCNC(=N)N)C(=O)N[C@H](C(=O)N[C@H](C=O)CC(=O)O)[C@@H](C)O | CASP3 | enzyme activity, inhibitor, fluorescence |  | pH 7 | 100 nM |
| CCCCCCOc1ccc(C(=O)OCCN2CC=CCC2)cc1 | CHRM1 | ligand displacement, radioligand |  | cell membranes | 4270 nM |
| CC[C@H](C)[C@H](NC(C)=O)C(=O)N[C@H](C(=O)N[C@H](C(=O)N[C@@H](CCCN)C(=O)N[C@H](C=O)CC(=O)O)C(C)C)[C@@H](C)O | CASP3 | enzyme activity, inhibitor, fluorescence |  | pH 7 | 2090 nM |
| CN1CCC=C(c2nsnc2OCCCCCNC(=O)CCCCCCC(=O)NCCCCCOc2nsnc2C2=CCCN(C)C2)C1 | CHRM3 | ligand displacement, radioligand |  |  | 7.24 nM |
| C[C@H](CCC(=O)N[C@@H](CCC(=O)Nc1ccc(F)nc1)C(=O)O)[C@H]1CC[C@H]2[C@@H]3[C@H](O)C[C@@H]4C[C@H](O)CC[C@]4(C)[C@H]3CC[C@]12C | SLC10A2 | taurocholate uptake, inhibitor | ASBT-MDCK | 10 min, added: taurocholate 2.5 µM | 5740 nM |
| CC(=O)N[C@@H](C)C(=O)N[C@@H](CCCCN)C(=O)N[C@H](C=O)CC(=O)O | CASP3 | enzyme activity, inhibitor, fluorescence |  | pH 7 | > 100000 nM |
| O=C1Nc2ccccc2N(C(=O)CN2CCC(CCCCN3CCN(CCCCOC(=O)C4c5ccccc5Oc5ccccc54)CC3)CC2)c2ccccc21 | CHRM1 | ligand displacement, radioligand |  |  | 24 nM |
| C/C(=N\OCCCN1CCCCC1)c1cccc(C(F)(F)F)c1 | Sigma non-opioid intracellular receptor 1 (Sigmar1, Rattus norvegicus, UniProt Q9R0C9) | binding |  |  | 67.6 ± 6.23 nM |
| CCC(=O)NCc1cc(C(=O)NCCCC(=O)NCCCCCOc2nsnc2C2=CCCN(C)C2)cc(C(=O)NCCN2CCN(CCCCC3CCN(CC(=O)N4c5ccccc5NC(=O)c5ccccc54)CC3)CC2)c1 | CHRM1 | ligand displacement, radioligand |  |  | 1.32 nM |
| CC(=O)N[C@H](C(=O)N[C@@H](CC(=O)O)C(=O)N[C@H](C(=O)N[C@H](CCN)C(=O)N[C@H](C=O)CC(=O)O)C(C)C)C(C)C | CASP3 | enzyme activity, inhibitor, fluorescence |  | pH 7 | > 100000 nM |
| O=C(Cc1c(-c2ccccc2)n[nH]c1-c1ccccc1)NO | Meprin A subunit beta (MEP1B, Homo sapiens, UniProt Q16820) | enzyme activity, inhibitor |  |  | 116 nM |
| CCCCCCOc1ccc(C(=O)OCC[N+]2(C)CC=CCC2)cc1 (stereo not drawn) | CHRM5 | ligand displacement, radioligand |  | cell membranes | 162 nM |

| SMILES | target | assay | system | conditions | Ki |
| --- | --- | --- | --- | --- | --- |
| O=C(COc1cccc2ccccc12)NCc1ccc(OP(=O)(O)O)c(OP(=O)(O)O)c1 | Signal transducer and activator of transcription 5A, SH2 (Homo sapiens, UniProt P42229) | ligand displacement, FP |  |  | 16100 nM |
| COC(=O)[C@H](CCCCN(C)CCCCN(O)C(=O)/C=C/C(=O)O)NC(=O)OCc1ccccc1 | Lysine-specific demethylase 2A (KDM2A, Homo sapiens, UniProt Q9Y2K7) | ligand displacement, FP |  |  | 120 nM |
| OC[C@@H]1[C@@H](O)[C@H](O)[C@@H](O)CN1CCCCCOCC1CCOC1 (stereo partly drawn) | GBA3 | enzyme activity, inhibitor |  |  | 180000 nM |
| CN1CCN(CCCCC2CCN(CC(=O)N3c4ccccc4NC(=O)c4ccccc43)CC2)CC(N)C1 (stereo not drawn) | CHRM1 | ligand displacement, radioligand |  |  | 55 nM |
| CC(=O)N[C@H](C(=O)N[C@@H](CC(=O)O)C(=O)N[C@H](CCN)C(=O)N[C@@H](C)C(=O)N[C@H](C=O)CC(=O)O)C(C)C | CASP3 | enzyme activity, inhibitor, fluorescence |  | pH 7 | 19500 nM |
| C[C@H](CCC(=O)N[C@@H](CCC(=O)Nc1cncc(Br)c1)C(=O)O)[C@H]1CC[C@H]2[C@@H]3[C@H](O)C[C@@H]4C[C@H](O)CC[C@]4(C)[C@H]3CC[C@]12C | SLC10A2 | taurocholate uptake, inhibitor | ASBT-MDCK | 10 min, added: taurocholate 2.5 µM | 21100 nM |
| C[C@H](CCC(=O)O)[C@H]1CC[C@H]2[C@@H]3[C@@H](OC(=O)c4cccnc4)C[C@H]4C[C@H](O)CC[C@]4(C)[C@H]3CC[C@]12C | SLC10A2 | transporter uptake, inhibitor, radiometric |  |  | 34200 nM |
| CC[C@H](C)[C@H](NC(C)=O)C(=O)N[C@H](C(=O)N[C@H](C(=O)N[C@@H](CCCCNC(C)=O)C(=O)N[C@H](C=O)CC(=O)O)C(C)C)[C@@H](C)O | CASP3 | enzyme activity, inhibitor, fluorescence |  | pH 7 | 45.7 nM |
| Cc1ccccc1C(=O)Nc1cccc(NC(=S)NC(=O)c2ccc3ccccc3c2)c1 | Low molecular weight phosphotyrosine protein phosphatase (ACP1, Homo sapiens, UniProt P24666) | enzyme activity, inhibitor, absorbance |  |  | 21500 nM |
| CC1(C)CC(=O)C=C(Sc2nc3cc(Cl)ccc3s2)C1 | Lysine-specific demethylase 4A (KDM4A, Homo sapiens, UniProt O75164) | ligand displacement, FP |  |  | > 200000 nM |
| C=C1CCC(=O)C(C)CCC2C1CC2(C)C(=O)C=CC(C)(C)O (stereo not drawn) | Pancreatic triacylglycerol lipase (PNLIP, Sus scrofa, UniProt P00591) | enzyme activity, inhibitor |  |  | 32500 nM |
| O=Cc1ccc(-c2cn([C@@H]3O[C@H](COP(=O)(O)OP(=O)(O)O[C@H]4O[C@H](CO)[C@H](O)[C@H](O)[C@H]4O)[C@@H](O)[C@H]3O)c(=O)[nH]c2=O)s1 | Histo-blood group ABO system transferase (ABO, Homo sapiens, UniProt P16442, G268A/L266G) | galactosyltransferase activity, inhibitor, radiochemical |  | added: 2 µM UDP-galactose donor, 100 µM acceptor | 530 nM |
| NCc1cc(C(=O)NCCN2CCN(CCCCC3CCN(CC(=O)N4c5ccccc5NC(=O)c5ccccc54)CC3)CC2)cc(C(=O)NCCN2CCN(CCCCC3CCN(CC(=O)N4c5ccccc5NC(=O)c5ccccc54)CC3)CC2)c1 | CHRM1 | ligand displacement, radioligand |  |  | 2.04 nM |
| O=c1ccn([C@H]2C[C@H](O)[C@@H](CCP(=O)(O)OP(=O)(O)OP(=O)(O)O)O2)c(=O)[nH]1 | Deoxynucleoside triphosphate triphosphohydrolase SAMHD1 (SAMHD1, Homo sapiens, UniProt Q9Y3Z3) | inhibitor |  |  | 80000 ± 6000 nM |
| CC(C)C[C@@H](C=O)NC(=O)[C@@H]1CCCN1C(=O)[C@H](CCCCN)NC(=O)[C@H](CO)NC(=O)[C@H](CO)NC(=O)OCc1ccccc1 | Prostate-specific antigen (Homo sapiens, UniProt P07288) | enzyme activity, inhibitor, fluorescence |  | pH 7.8 | > 500000 nM |
| CC1(C)NC(N)=Nc2nc3ccccc3n21 | Bifunctional dihydrofolate reductase-thymidylate synthase, DHFR domain (Trypanosoma cruzi, UniProt Q27793) | enzyme activity, competitive inhibitor |  | added: dihydrofolate 60 µM, NADPH 100 µM | 9660 nM |
| COc1ccc2[nH]c(-c3cccc4ccccc34)c(CCNC(=O)CI)c2n1 | Melatonin receptor type 1A (MTNR1A, Homo sapiens, UniProt P48039) | ligand displacement, radioligand |  | cell membranes | 85.1 nM |
| COc1ccc(CCCN[C@H]2CCC[C@@H]2CN[C@H]2CCC[C@@H]2CNCCCCN[C@H]2CCC[C@@H]2CN)cc1 | Amine oxidase [flavin-containing] B (MAOB, Homo sapiens, UniProt P27338) | enzyme activity, inhibitor |  |  | > 500000 nM |
| CC(=O)N[C@@H](CCCNC(=N)N)C(=O)N[C@H](C(=O)N[C@H](C=O)CC(=O)O)[C@@H](C)O | CASP3 | enzyme activity, inhibitor, fluorescence |  | pH 7 | 11000 nM |
| CCC(=O)NC1CN(CCCCC2CCN(CC(=O)N3c4ccccc4NC(=O)c4ccccc43)CC2)CCN(CCCOc2nsnc2C2=CCCN(C)C2)C1 (stereo not drawn) | CHRM3 | ligand displacement, radioligand |  |  | 145 nM |
| CC(C)COCCCCCN1C[C@H](O)[C@@H](O)[C@H](O)[C@@H]1CO | GBA3 | enzyme activity, inhibitor |  |  | 177000 nM |

For quick reference, copied from above:
| SMILES | target | assay | system | conditions | Ki |
| --- | --- | --- | --- | --- | --- |
| O=C(COc1cccc2ccccc12)NCc1ccc(OP(=O)(O)O)c(OP(=O)(O)O)c1 | Signal transducer and activator of transcription 5A, SH2 (Homo sapiens, UniProt P42229) | ligand displacement, FP |  |  | 16100 nM |
| CC(C)C[C@@H](C=O)NC(=O)[C@@H]1CCCN1C(=O)[C@H](CCCCN)NC(=O)[C@H](CO)NC(=O)[C@H](CO)NC(=O)OCc1ccccc1 | Prostate-specific antigen (Homo sapiens, UniProt P07288) | enzyme activity, inhibitor, fluorescence |  | pH 7.8 | > 500000 nM |
| CCCCCCOc1ccc(C(=O)OCC[N+]2(C)CC=CCC2)cc1 (stereo not drawn) | CHRM5 | ligand displacement, radioligand |  | cell membranes | 162 nM |
| C=C1CCC(=O)C(C)CCC2C1CC2(C)C(=O)C=CC(C)(C)O (stereo not drawn) | Pancreatic triacylglycerol lipase (PNLIP, Sus scrofa, UniProt P00591) | enzyme activity, inhibitor |  |  | 32500 nM |
